Results pooled from the literature.
Compare with care: the assays were run in different laboratories.
MAPK9: Mitogen-activated protein kinase 9 (MAPK9, Homo sapiens, UniProt P45984)
UniProt P45984, sequence (whole entry, looked up): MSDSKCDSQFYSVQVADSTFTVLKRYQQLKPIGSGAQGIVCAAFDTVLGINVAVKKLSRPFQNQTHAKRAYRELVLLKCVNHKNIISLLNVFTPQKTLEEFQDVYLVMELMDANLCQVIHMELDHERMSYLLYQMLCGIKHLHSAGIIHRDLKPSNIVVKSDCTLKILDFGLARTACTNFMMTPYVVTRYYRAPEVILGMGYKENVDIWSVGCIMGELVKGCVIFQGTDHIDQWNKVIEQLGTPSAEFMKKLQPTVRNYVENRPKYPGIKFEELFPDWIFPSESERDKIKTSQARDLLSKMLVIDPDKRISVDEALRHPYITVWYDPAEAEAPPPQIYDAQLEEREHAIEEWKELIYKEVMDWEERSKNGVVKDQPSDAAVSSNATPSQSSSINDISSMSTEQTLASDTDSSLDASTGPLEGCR

Cc1cc(Nc2cc(N3CCN(C)CC3)nc(Sc3ccc(NC(=O)C4CC4)cc3)n2)[nH]n1 — remaining activity (MAPK9; kinase activity, KinaseProfiler; 0.03 µM, species human; relative to: control): 105%
Cc1nc(NC(=O)N2CCC[C@H]2C(N)=O)sc1-c1ccnc(C(C)(C)C(F)(F)F)c1 — remaining binding (MAPK9; KINOMEscan; 10 µM): 93%
CC[C@@H]1[C@H](F)C(=O)N[C@@H]1COc1nccc2cc(C(N)=O)c(OC)cc12 — inhibition (MAPK9; ATP probe binding, KiNativ profiling, measured: Lys1 probe site; THP-1 cell lysate; 0.04 mM): -18.4%
CNc1ncc2c(/C=C/C(=O)N3CCC(OC)CC3)nn(Cc3cccc(C(F)(F)F)c3)c2n1 — remaining activity (MAPK9; kinase activity, inhibitor; 1 µM; relative to: untreated control): 91%
COc1cc(-c2cncc3c2CN(C)Cc2cc(N4CCNCC4)ccc2-3)cc(OC)c1OC — remaining activity (MAPK9; kinase activity; 1 µM, human enzyme, with: ATP 10 µM; relative to: DMSO control): 118%
COc1cc(F)ccc1-c1ncnc(Nc2cccc(C[S@](C)(=N)=O)c2)n1 — remaining activity (MAPK9; kinase activity; 10 µM, with: 10 µM ATP): 95%
O=C(NC1CCC1)c1ccc2nc(-c3cccc(NS(=O)(=O)NCCN4CCCCC4)c3)cn2c1 — remaining activity (MAPK9; enzyme activity; 10 µM): 69%
Cc1cc(NC(=O)c2cccc(NC(=O)/C=C/CN(C)C)c2)ccc1Nc1nccc(-c2cccnc2)n1 — remaining activity (MAPK9; enzyme activity, inhibitor; 0.06097 µM, unit not given; relative to: vehicle): 0.348
CCN(CC)c1ccc(C2=NNC(=O)CC2C)cc1[N+](=O)[O-] (stereo not shown) — remaining activity (MAPK9; enzyme activity, inhibitor; 10 µM; relative to: vehicle): 91%
CN1CC(Oc2cnc(C#N)cc2-c2ccn3nc(NC(=O)C4CC4)cc3c2)C1 — inhibition (Mitogen-activated protein kinase 9, isoform alpha2 (MAPK9, Homo sapiens, UniProt P45984); kinase activity, inhibitor; 1 µM, with: ATP 45 µM): -4%

A few entries again:
CCN(CC)c1ccc(C2=NNC(=O)CC2C)cc1[N+](=O)[O-] (stereo not shown) — remaining activity (MAPK9; enzyme activity, inhibitor; 10 µM; relative to: vehicle): 91%
